Experimental data pooled from the literature.
“And” joins repeats or separate records; there may be more than shown. ± marks the error that the study gave.
EDNRA: Endothelin-1 receptor (EDNRA, Homo sapiens, UniProt P25101)
Sequence of UniProt Q9DB29 (whole entry, looked up): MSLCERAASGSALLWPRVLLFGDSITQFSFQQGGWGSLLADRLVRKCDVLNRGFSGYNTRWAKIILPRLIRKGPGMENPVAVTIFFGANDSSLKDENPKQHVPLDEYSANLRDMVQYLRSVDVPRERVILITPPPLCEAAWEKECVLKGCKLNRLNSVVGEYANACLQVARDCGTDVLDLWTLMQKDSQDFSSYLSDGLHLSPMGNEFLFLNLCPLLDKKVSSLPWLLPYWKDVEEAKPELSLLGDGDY
Sequence of UniProt Q6DWJ6 (whole entry, looked up): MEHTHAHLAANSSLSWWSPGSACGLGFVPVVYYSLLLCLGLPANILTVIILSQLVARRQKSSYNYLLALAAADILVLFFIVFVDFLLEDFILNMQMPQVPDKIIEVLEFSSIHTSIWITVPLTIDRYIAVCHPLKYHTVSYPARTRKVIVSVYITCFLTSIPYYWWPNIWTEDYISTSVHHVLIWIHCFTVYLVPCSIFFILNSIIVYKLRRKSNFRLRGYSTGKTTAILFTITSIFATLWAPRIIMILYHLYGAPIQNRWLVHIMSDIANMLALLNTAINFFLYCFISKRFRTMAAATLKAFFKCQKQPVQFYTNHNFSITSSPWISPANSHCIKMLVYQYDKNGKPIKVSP
Sequence of UniProt Q9Y2J8 (whole entry, looked up): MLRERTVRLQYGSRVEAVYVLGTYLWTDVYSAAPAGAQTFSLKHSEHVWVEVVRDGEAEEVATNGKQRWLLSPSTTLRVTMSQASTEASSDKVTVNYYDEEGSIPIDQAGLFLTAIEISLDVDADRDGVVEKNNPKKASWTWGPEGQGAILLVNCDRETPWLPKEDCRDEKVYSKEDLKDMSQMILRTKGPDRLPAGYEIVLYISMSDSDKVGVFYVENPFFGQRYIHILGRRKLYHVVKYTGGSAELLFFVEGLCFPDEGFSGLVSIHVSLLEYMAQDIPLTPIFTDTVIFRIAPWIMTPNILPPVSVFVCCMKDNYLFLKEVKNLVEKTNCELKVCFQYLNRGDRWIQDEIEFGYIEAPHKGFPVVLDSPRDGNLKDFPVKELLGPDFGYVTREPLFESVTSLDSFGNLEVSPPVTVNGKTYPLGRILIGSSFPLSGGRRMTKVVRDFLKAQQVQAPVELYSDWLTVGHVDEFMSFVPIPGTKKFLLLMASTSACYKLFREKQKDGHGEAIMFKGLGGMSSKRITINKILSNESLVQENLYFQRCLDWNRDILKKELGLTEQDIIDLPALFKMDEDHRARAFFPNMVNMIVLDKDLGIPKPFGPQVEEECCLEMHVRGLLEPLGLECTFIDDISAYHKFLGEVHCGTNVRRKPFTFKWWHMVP
Sequence of UniProt P25101 (whole entry, looked up): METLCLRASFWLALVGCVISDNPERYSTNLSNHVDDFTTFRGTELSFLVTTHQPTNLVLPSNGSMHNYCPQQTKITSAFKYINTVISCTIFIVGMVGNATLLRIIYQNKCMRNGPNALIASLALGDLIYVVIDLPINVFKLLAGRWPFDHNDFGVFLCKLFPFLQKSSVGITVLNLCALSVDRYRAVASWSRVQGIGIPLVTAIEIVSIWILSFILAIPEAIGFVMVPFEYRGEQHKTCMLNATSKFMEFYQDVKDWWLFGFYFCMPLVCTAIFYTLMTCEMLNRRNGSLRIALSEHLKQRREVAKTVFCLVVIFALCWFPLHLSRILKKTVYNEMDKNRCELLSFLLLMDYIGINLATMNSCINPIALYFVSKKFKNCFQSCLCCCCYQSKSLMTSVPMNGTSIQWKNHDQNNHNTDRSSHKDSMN
Sequence of UniProt Q9UH17 (whole entry, looked up): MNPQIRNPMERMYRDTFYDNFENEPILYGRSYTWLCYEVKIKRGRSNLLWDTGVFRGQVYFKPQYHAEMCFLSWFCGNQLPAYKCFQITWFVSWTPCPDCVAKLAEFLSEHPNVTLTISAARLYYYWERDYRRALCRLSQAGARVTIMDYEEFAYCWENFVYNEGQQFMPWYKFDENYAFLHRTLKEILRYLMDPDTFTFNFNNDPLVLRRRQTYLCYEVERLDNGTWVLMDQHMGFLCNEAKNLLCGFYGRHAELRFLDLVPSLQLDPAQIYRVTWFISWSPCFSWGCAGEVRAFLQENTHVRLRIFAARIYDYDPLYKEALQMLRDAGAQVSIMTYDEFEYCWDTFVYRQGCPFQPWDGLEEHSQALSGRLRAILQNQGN
Sequence of UniProt P08069 (whole entry, looked up): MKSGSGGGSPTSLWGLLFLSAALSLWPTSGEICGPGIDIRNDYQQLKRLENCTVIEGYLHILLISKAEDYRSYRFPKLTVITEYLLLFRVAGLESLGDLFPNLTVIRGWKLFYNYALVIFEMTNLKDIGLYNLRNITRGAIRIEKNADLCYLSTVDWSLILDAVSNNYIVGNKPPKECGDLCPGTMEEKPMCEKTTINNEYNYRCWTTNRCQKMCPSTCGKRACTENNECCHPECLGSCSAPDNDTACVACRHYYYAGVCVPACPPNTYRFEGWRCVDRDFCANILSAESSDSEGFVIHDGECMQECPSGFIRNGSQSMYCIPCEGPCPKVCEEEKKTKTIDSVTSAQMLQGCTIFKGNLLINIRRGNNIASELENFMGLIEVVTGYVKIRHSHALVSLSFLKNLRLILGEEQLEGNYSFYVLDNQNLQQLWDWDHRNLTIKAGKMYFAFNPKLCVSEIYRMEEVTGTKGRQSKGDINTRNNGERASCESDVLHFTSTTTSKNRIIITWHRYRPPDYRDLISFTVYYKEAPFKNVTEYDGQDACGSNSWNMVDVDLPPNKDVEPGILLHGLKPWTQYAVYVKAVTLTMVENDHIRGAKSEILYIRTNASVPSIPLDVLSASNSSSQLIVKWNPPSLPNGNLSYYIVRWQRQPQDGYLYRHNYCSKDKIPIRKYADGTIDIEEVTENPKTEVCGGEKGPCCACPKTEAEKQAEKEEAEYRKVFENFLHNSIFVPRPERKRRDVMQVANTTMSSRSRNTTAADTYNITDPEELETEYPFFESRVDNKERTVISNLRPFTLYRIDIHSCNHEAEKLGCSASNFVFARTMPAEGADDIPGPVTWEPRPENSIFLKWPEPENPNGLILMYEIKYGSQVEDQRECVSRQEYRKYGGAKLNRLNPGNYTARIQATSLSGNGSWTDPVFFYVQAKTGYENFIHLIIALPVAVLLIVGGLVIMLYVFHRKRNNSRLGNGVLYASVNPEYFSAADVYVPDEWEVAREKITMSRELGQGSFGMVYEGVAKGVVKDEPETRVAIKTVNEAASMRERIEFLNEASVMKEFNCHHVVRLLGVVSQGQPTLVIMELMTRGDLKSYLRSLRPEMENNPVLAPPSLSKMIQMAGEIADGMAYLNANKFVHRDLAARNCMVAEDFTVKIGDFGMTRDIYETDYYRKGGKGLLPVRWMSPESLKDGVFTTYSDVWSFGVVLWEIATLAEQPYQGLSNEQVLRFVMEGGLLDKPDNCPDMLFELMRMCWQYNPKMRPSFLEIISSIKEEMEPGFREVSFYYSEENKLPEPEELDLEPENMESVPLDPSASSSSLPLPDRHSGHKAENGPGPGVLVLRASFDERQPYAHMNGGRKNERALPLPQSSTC
Sequence of UniProt O75844 (whole entry, looked up): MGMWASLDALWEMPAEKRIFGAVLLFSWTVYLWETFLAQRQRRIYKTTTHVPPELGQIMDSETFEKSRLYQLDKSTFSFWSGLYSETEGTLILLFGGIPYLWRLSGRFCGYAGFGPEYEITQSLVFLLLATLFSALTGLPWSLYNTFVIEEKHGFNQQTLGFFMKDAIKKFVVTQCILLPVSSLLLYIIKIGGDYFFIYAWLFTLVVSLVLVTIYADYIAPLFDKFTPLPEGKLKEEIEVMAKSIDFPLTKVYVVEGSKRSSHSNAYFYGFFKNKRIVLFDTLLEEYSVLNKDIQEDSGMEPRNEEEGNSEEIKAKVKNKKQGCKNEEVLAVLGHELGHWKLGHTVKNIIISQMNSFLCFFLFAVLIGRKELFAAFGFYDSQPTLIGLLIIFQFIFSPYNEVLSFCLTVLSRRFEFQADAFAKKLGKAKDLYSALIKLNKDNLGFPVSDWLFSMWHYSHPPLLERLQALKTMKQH
Sequence of UniProt O75460 (whole entry, looked up): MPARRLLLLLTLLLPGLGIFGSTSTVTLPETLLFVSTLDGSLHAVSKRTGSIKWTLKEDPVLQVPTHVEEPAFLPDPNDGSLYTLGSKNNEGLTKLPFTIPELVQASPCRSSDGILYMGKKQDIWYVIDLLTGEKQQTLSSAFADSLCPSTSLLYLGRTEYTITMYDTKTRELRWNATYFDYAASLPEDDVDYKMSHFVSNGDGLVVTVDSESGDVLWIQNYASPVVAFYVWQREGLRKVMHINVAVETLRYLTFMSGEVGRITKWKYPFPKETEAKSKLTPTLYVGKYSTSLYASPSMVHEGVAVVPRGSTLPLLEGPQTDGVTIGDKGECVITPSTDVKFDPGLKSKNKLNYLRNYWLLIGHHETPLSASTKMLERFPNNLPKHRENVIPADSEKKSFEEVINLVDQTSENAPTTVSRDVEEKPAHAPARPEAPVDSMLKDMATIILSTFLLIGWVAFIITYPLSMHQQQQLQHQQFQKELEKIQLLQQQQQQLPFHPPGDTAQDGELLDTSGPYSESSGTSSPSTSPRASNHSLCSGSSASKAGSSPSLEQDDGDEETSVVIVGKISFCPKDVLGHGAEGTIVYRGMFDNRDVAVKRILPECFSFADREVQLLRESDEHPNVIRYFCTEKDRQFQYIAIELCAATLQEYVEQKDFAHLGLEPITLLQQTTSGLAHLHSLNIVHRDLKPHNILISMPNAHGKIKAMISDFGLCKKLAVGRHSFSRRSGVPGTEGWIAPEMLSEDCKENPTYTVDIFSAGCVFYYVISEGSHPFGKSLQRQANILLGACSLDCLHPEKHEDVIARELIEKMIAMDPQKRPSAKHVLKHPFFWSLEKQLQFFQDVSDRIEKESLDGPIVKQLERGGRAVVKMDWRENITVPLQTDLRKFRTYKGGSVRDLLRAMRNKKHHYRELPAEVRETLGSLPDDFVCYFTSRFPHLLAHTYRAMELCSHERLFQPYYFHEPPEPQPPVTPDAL

Compound | target | assay | test system | setting | scale | quantity | value
CC#CC(=O)NC[C@H](NC(=O)[C@H](CC1CCCCC1)NC(=O)[C@H](CCC(N)=O)NC(C)=O)C(=O)N[C@@H](CC(C)C)C(=O)N[C@@H](Cc1ccccc1)C(=O)O | Beta sliding clamp (Escherichia coli, UniProt P0A988) | binding, isothermal titration calorimetry | – | 37 °C | – | ΔH | -17 kcal/mol
COCC1CCCCN1C(=O)n1cc(C(O)(c2ccccc2)c2ccccc2)nn1 (centres unmarked) | Platelet-activating factor acetylhydrolase IB subunit alpha1 (Pafah1b3, Mus musculus, UniProt Q61205) | probe labelling, inhibitor, competitive ABPP-SILAC, refers to: Pafah1b3 | mouse T cells | concentration not given, 4 h, protein level | relative to: treated over DMSO cells, lower = stronger inhibition | SILAC activity ratio | 1.46
CC(C)[C@H]1NC(=O)C[C@H]2/C=C/CCSSC[C@@H](NC1=O)C(=O)N[C@H](Cc1cccc3ccccc13)C(=O)NCC(=O)O2 | Cyclin-dependent kinase 2, with cyclin A2 (CDK2, Homo sapiens, UniProt P24941) | enzyme activity, inhibitor | – | 10 µM | – | inhibition | -6.4%
CC[C@H](C)[C@H](NC(=O)[C@H](CCCNC(=N)N)NC(=O)[C@H](CCCNC(=N)N)NC(=O)[C@H](CC(C)C)NC(=O)[C@H](Cc1ccccc1)NC(=O)CNC(=O)CNC(=O)[C@@H](N)Cc1ccc(O)cc1)C(=O)N[C@@H](CCCNC(=N)N)C(=O)N1CCC[C@H]1C(=O)N[C@@H](CCCCN)C(=O)N[C@@H](CC(C)C)C(=O)N[C@@H](CCCCN)C(=O)O | Probable G-protein coupled receptor 139 (GPR139, Homo sapiens, UniProt Q6DWJ6) | Gαolf activation, agonist, BRET | HEK293T/17 | 40 µM | – | Emax | 10.8% and 9.01%
O[C@H]1[C@H](O)[C@@H](Cl)C=C[C@@H]1O | yeast alpha-glucosidase | reactivation, covalent inhibitor | – | pH 7.0, 37 °C | – | kreact | 2.35e-06 ± 1.7e-07 s^–1
COc1cc(Nc2nc(C)cc(-c3cnn4nc(OC)ccc34)n2)cc(C(F)(F)F)c1 | Cyclin-dependent kinase 2 homolog (CRK2, Plasmodium falciparum, UniProt P61075) | KINOMEscan binding | – | 1000 nM | relative to: control | remaining binding | 100%
CC(C)CC(O)(CC(C)C)c1cn(C(=O)N2CCCC2)nn1 | Isoamyl acetate-hydrolyzing esterase 1 homolog (Iah1, Mus musculus, UniProt Q9DB29) | probe labelling, inhibitor, competitive ABPP-SILAC, refers to: Iah1 | mouse T cells | concentration not given, 4 h, single peptide | relative to: treated over DMSO cells, lower = stronger inhibition | SILAC activity ratio | 1.22 and 1.19 and 1.12 and 1.16 and 1.28
C[C@H](NCc1ccc(-c2ccc(C(F)(F)F)cc2)cc1)C(N)=O | Serine/threonine-protein kinase PLK4 (PLK4, Homo sapiens, UniProt O00444) | cell-free assay, competition with immobilised ligand | – | 1 µM | – | inhibition | 28%
CCc1nnc(-c2c(OC)cc(-c3cnc4cc(-c5cnn(C)c5)ccn34)cc2OC)o1 | EDNRA | agonist radioligand, radioligand binding | – | 10 µM, SafetyScreen44 ETA mean | lower = stronger displacement | remaining binding | 96.2%
CCC1(CC)C(=O)N(c2cccc(CN3CCN(Cc4ccc(Br)cc4)CC3)c2)C1=O | Dipeptidyl peptidase 8 (Homo sapiens, UniProt Q6V1X1) | inhibitor | – | added: GP-AMC substrate | relative to: Ki' DPP9 over Ki' DPP8 | selectivity ratio | 7
COC(=O)[C@@H](NC(=O)c1nn(Cc2ccc(F)cc2)c2cc(OCCCCNC(=N)N)ccc12)C(C)(C)C | Cannabinoid receptor 1 (CNR1, Homo sapiens, UniProt P21554) | β-arrestin-2 recruitment, agonist, BRET | – | – | – | maximal efficacy | 69%
OC1Cc2ccccc2CC1N1CCC2(C=Cc3ccc(Br)cc32)CC1 (racemic) | Vesicular acetylcholine transporter (Rattus norvegicus, UniProt Q62666) | – | rat liver (sigma2) | – | relative to: Ki sigma2 over Ki VAChT | selectivity ratio | 32
O=C(CN1CN(c2ccccc2)C2(CCN(C(=O)c3cnc4[nH]ncc4c3)CC2)C1=O)NCC(F)(F)F | Non-receptor tyrosine-protein kinase TYK2, JH2 pseudokinase domain (TYK2, Homo sapiens, UniProt P29597) | inhibitor | – | concentration not given | – | inhibition | < 50%
CCOC(=O)[C@@H]1Cc2c(cc([N+](=O)[O-])cc2[N+](=O)[O-])[C@H](O)[C@]12C(=O)Nc1ccc(Br)cc12 | Serine/threonine-protein kinase RIO2 (RIOK2, Homo sapiens, UniProt Q9BVS4) | binding, competition with immobilised ligand | – | 0.1 µM | – | remaining binding | 97%
Cc1cc(Nc2nc(C[C@@]3(C(=O)O)CCN(Cc4cccc(Cl)c4F)[C@H](C)C3)cc(C)c2F)[nH]n1 | EDNRA | agonist | – | 10 µM | – | activation | -1.05%
CN(C)[C@H]1C[C@@]23CC[C@@]4(O2)C(=CC[C@]2(C)[C@@H](c5ccc6ccncc6c5)CC[C@H]24)C=C3[C@@H](O)[C@@H]1O | Serine/threonine-protein kinase/endoribonuclease IRE1 (ERN1, Homo sapiens, UniProt O75460) | ATP probe labelling, inhibitor, KiNativ profiling | – | 0.1 µM | – | inhibition | -14.6%
O=C1NC(=O)c2c1c1cc(F)c[n+]3c1c1c2c2cc(O)ccc2[n]1[Ru-4]312([N]=C=S)[S+]3CC[S+]1CC[S+]2CC3 (centres unmarked) | Insulin-like growth factor 1 receptor, activated (IGF1R, Homo sapiens, UniProt P08069) | enzyme activity | – | 100 nM, human enzyme, added: 10 µM ATP | relative to: untreated | remaining activity | 43%
N[C@H](C(=O)N1CCCC1)C1CCN(c2nccc3c(-c4ncc(Cl)cc4Cl)cccc23)CC1 | Protein-arginine deiminase type-2 (PADI2, Homo sapiens, UniProt Q9Y2J8) | thermal shift | – | 30 µM | – | melting temperature | 70.5 °C
C=CC(=O)Nc1cc(-c2ccc(C(=O)N3CCCC(O)(CC)C3)cc2)ccc1F (centres unmarked) | DNA dC->dU-editing enzyme APOBEC-3B, C-terminal domain (Homo sapiens, UniProt Q9UH17) | covalent adduct, intact protein MS | – | 3 h, 10-fold excess, 250 µM | – | adducted protein | 60% and 47%
CS(C)(=O)=Nc1ccc(-c2ccc(-c3nc4cc(O[C@@H]5CO[C@H]6[C@@H]5OC[C@H]6O)[nH]c4cc3F)cc2)cc1 | Calcium/calmodulin-dependent protein kinase type 1D (CAMK1D, Homo sapiens, UniProt Q8IU85) | enzyme activity, inhibitor | – | 10 µM | – | inhibition | -13%
CCN1CCN(C2CCN(C(=O)COc3ccc(-c4ccc(OC)cc4)cc3)CC2)CC1 | uncharacterized protein (Apis mellifera, UniProt A0A7M6W5G5) | enzyme activity, inhibitor, Ellman | – | up to 1000 µM, pH 7.4, 30 °C, added: 1 mM acetylthiocholine | – | IC50 | inactive
CCCCC/C=C\C/C=C\C/C=C\C/C=C\CCCC(=O)NCCc1ccc(O)c(O)c1 | Transient receptor potential cation channel subfamily V member 1 (Trpv1, Mus musculus, UniProt Q704Y3, T551V) | ion current, agonist, whole-cell patch clamp | – | T551V | – | Hill coefficient | 1.64 ± 0.46
C#CCCCCOc1ccc2c(c1)CCCN2C(=O)CCl | CAAX prenyl protease 1 homolog (Homo sapiens, UniProt O75844) | mass spectrometry profiling, refers to: ZMPSTE24 | H460 cell lysate | 100 µM over 10 µM, UniProt O75844 | relative to: high over low concentration | reactivity ratio | 1.47

A few entries again:
Compound | target | assay | test system | setting | scale | quantity | value
O=C(CN1CN(c2ccccc2)C2(CCN(C(=O)c3cnc4[nH]ncc4c3)CC2)C1=O)NCC(F)(F)F | Non-receptor tyrosine-protein kinase TYK2, JH2 pseudokinase domain (TYK2, Homo sapiens, UniProt P29597) | inhibitor | – | concentration not given | – | inhibition | < 50%
Cc1cc(Nc2nc(C[C@@]3(C(=O)O)CCN(Cc4cccc(Cl)c4F)[C@H](C)C3)cc(C)c2F)[nH]n1 | EDNRA | agonist | – | 10 µM | – | activation | -1.05%
